Assay results pooled from the literature.

COc1cccc(OC)c1C(=O)N[C@@H]1C(=O)N2[C@@H]1SC(C)(C)[C@@H]2C(=O)O — MIC (Salmonella enterica serovar Typhimurium; 14028, Mueller-Hinton broth; 18 to 20 h, 37 °C): > 128 µM
CC1(C)[C@H](NC(=O)/C(=N\OC2(C(=O)O)CCCC2)c2csc(N)n2)C(=O)N1OS(=O)(=O)O — MIC (Providencia rettgeri; agar dilution; ATCC 31052, susceptible): ≤ 0.03 µg/mL
COC1C=COC2(C)Oc3c(C)c(O)c4c(c3C2=O)C2=NC3(CCN(CC(C)C)CC3)NC2=C(NC(=O)C(C)=CC=CC(C)C(O)C(C)C(O)C(C)C(OC(=O)c2cccnc2)C1C)C4=O (stereo not shown) — MIC (Mycobacteroides abscessus; broth microdilution; ATCC 19977): 0.02 µM
CC(C)OC(=O)C12CSC(c3ccccc3)N1C(=O)C(=C(O)NC13CC4CC(CC(C4)C1)C3)C2=O (stereo not shown) — MIC (Streptomyces; bacterial growth, broth dilution; Mueller-Hinton broth; 24 h, 35 °C): 1.95 µg/mL
N=C(N)NCCC[C@@H]1NC(=O)[C@@H](CCCNC(=N)N)NC(=O)[C@H](CCCNC(=N)N)NC(=O)[C@@H](C(c2ccccc2)c2ccccc2)NC(=O)[C@@H](C(c2ccccc2)c2ccccc2)NC(=O)[C@@H](C(c2ccccc2)c2ccccc2)NC(=O)[C@@H](CCCNC(=N)N)NC1=O — MIC (Candida albicans; CA3): 32 µg/mL
C=CCO/N=C(\C(=O)N[C@@H]1C(=O)N(OS(=O)(=O)O)C1(C)C)c1nsc(N)n1 — MIC (Providencia rettgeri; agar dilution; ATCC 31052, susceptible): ≤ 0.03 µg/mL
O=C1C(=C(O)NC23CC4CC(CC(C4)C2)C3)C(=O)C2(C(=O)OC3CCCCC3)CSC(c3ccccc3)N12 (stereo not shown) — MIC (Streptomyces; bacterial growth, broth dilution; Mueller-Hinton broth; 24 h, 35 °C): 15.6 µg/mL
CC1C=CC=CC(C)C2C=CC3CC(C)(O)C(Cl)C(C)C3C2C(=O)C(Cl)(Cl)C(=O)C(C)C(=O)O1 (stereo not shown) — MIC (Staphylococcus aureus; MRSA clinical isolate; resistant: OXA,GEN): 0.2 µg/mL
CC1(C)[C@H](NC(=O)/C(=N\OCC(=O)N2CCC(C(=O)O)C2)c2nsc(N)n2)C(=O)N1OS(=O)(=O)O (stereo partly shown) — MIC (Citrobacter freundii; agar dilution; ATCC 43864, susceptible): 2 µg/mL
COc1c(NC(=O)c2ccc(NC(=O)c3ccc(NC(=O)[C@H](Cc4c[nH]nn4)NC(=O)c4ccc(NC(=O)/C(C)=C/c5ccc(O)cc5)cc4)cc3)cc2O)ccc(C(=O)O)c1O — MIC (Mycolicibacterium phlei; DSM 750): 2 µg/mL
CNC(C)C1CCC(N)C(OC2C(N)CC(N)C(OC3OCC(C)(O)C(NC)C3O)C2O)O1 (stereo not shown) — MIC (Gram-positive bacteria; seven strains): 2 µM
CC1(C)[C@H](NC(=O)/C(=N\OC2(C(=O)O)CC2)c2nsc(N)n2)C(=O)N1OS(=O)(=O)O — MIC (Citrobacter freundii; agar dilution; ATCC 43864, susceptible): 0.25 µg/mL
O=C1C(=C(O)NC23CC4CC(CC(C4)C2)C3)C(=O)C2(C(=O)OCc3ccccc3[N+](=O)[O-])CSC(c3ccnc(Br)c3)N12 (stereo not shown) — MIC (Streptomyces; bacterial growth, broth dilution; Mueller-Hinton broth; 24 h, 35 °C): 31.3 µg/mL
COc1nc(C(=O)Nc2ccc(C(=O)O)c(O)c2OC)ccc1NC(=O)c1ccc(NC(=O)[C@H](Cc2c[nH]nn2)NC(=O)c2ccc(NC(=O)/C(C)=C/c3ccc(O)cc3)cc2)cc1 — MIC (Mycolicibacterium phlei; DSM 750): 1 µg/mL
O=C1/C(=C(\O)C2CCCCC2)C(=O)[C@@]2(C(=O)OC3CCCCC3)CS[C@H](c3ccccc3)N12 — MIC (Streptomyces; bacterial growth, broth dilution; Mueller-Hinton broth; 24 h, 35 °C): 3.91 µg/mL
COc1cc(C(=O)O)ccc1NC(=O)c1ccc(NC(=O)c2ccc(NC(=O)[C@H](Cc3c[nH]nn3)NC(=O)c3ccc(NC(=O)/C(C)=C/c4ccc(O)cc4)cc3)cc2)c(OC)c1O — MIC (Mycolicibacterium phlei; DSM 750): 2 µg/mL
Cc1c(CN(C)C(=O)/C=C/c2cnc3c(c2)CC(N)C(=O)N3)oc2ccccc12 (stereo not shown) — MIC (Acinetobacter baumannii; broth microdilution; AR-0033): 32 µg/mL
CC1(C)[C@H](NC(=O)/C(=N\OCCN)c2csc(N)n2)C(=O)N1OS(=O)(=O)O — MIC (Citrobacter freundii; agar dilution; ATCC 43864, susceptible): 1 µg/mL
O=CCNCCOn1c(=O)n(OCCNCCO)c(=O)n(OCCNCCOn2c(=O)n(OCCNCCO)c(=O)n(OCCNCCO)c2=O)c1=O — MIC (Alternaria solani; microbial growth, broth dilution): 16 µg/mL
COc1c(NC(=O)c2ccc(NC(=O)[C@H](Cc3c[nH]nn3)NC(=O)c3ccc(NC(=O)/C(C)=C/c4ccc(O)cc4)cc3)cc2)ccc(C(=O)Nc2ccc(C(=O)O)cc2)c1O — MIC (Mycolicibacterium phlei; DSM 750): 1 µg/mL
CC(C)OC(=O)[C@]12CS[C@H](c3ccccc3)N1C(=O)/C(=C(\O)C1CCCCC1)C2=O — MIC (Streptomyces; bacterial growth, broth dilution; Mueller-Hinton broth; 24 h, 35 °C): 7.81 µg/mL
CCOc1c(NC(=O)c2ccc(NC(=O)c3ccc(NC(=O)[C@H](Cc4c[nH]nn4)NC(=O)c4ccc(NC(=O)/C(C)=C/c5ccc(O)cc5)cc4)cc3)c(OC)c2O)ccc(C(=O)O)c1O — MIC (Mycolicibacterium phlei; DSM 750): 0.5 µg/mL
CC1(C)[C@H](NC(=O)/C(=N\OCc2c(Cl)cccc2Cl)c2csc(N)n2)C(=O)N1OS(=O)(=O)O — MIC (Citrobacter freundii; agar dilution; ATCC 43864, susceptible): 1 µg/mL
N=C(N)NCCC[C@@H]1NC(=O)[C@H](CCCNC(=N)N)NC(=O)[C@@H](C(c2ccccc2)c2ccccc2)NC(=O)[C@H](Cc2c[nH]c3ccccc23)NC(=O)[C@@H](C(c2ccccc2)c2ccccc2)NC(=O)[C@@H](CCCNC(=N)N)NC(=O)[C@@H](CCCNC(=N)N)NC1=O — MIC (Candida albicans; fungal growth): 8 µg/mL
C=C(NC(=O)c1csc(-c2nc3c(cc2O)-c2nc(cs2)C(=O)NC(C(C)O)C(=O)NC(=C(C)OC)c2nc(cs2)C(=O)NC2c4nc(cs4)C(=O)NC(COC(=O)c4c5c6c(cccc6n4O)COC(=O)C(OC4CC(C)(O)C(N(C)C)C(C)O4)C2OC5)c2nc-3cs2)n1)C(N)=O (stereo not shown) — MIC (Staphylococcus aureus; MRSA-11): 0.0039 µg/mL
COc1c(NC(=O)c2ccc(NC(=O)c3ccc(NC(=O)[C@H](Cc4c[nH]nn4)NC(=O)c4ccc(NC(=O)/C(C)=C/c5ccc(O)cc5)cc4)cc3)cc2)ccc(C(=O)O)c1O — MIC (Mycolicibacterium phlei; DSM 750): 4 µg/mL
CC(=O)NC[C@H]1CN(c2ccc(N3CCN(C(=O)CN)CC3)c(F)c2)C(=O)O1 — MIC (Salmonella enterica serovar Typhimurium; broth dilution; SL1344): inactive
CCOc1c(NC(=O)c2ccc(NC(=O)c3ccc(NC(=O)[C@H](Cc4c[nH]nn4)NC(=O)c4ccc(NC(=O)/C(C)=C/c5ccc(O)cc5)cc4)cc3)c(OCC)c2O)ccc(C(=O)O)c1O — MIC (Mycolicibacterium phlei; DSM 750): 0.5 µg/mL
O=C1/C(=C(\O)C2CCCCC2)C(=O)[C@@]2(C(=O)OCc3ccccc3)CS[C@H](c3ccc(Br)cn3)N12 — MIC (Streptomyces; bacterial growth, broth dilution; Mueller-Hinton broth; 24 h, 35 °C): 15.6 µg/mL
CC1(C)C(NC(=O)C(=NOCC(=O)N2CC3CCCC3C2C(=O)O)c2csc(N)n2)C(=O)N1OS(=O)(=O)O (stereo not shown) — MIC (Providencia rettgeri; agar dilution; ATCC 31052, susceptible): ≤ 0.03 µg/mL
O=C1C(=C(O)NC23CC4CC(CC(C4)C2)C3)C(=O)C2(C(=O)OC3CCCCC3)CSC(c3ccccn3)N12 (stereo not shown) — MIC (Streptomyces; bacterial growth, broth dilution; Mueller-Hinton broth; 24 h, 35 °C): 7.81 µg/mL
CN[C@H](CC(C)C)C(=O)N[C@H]1C(=O)N[C@@H](CC(N)=O)C(=O)N[C@H]2C(=O)N[C@H]3C(=O)N[C@H](C(=O)N[C@H](C(=O)O)c4cc(O)cc(O)c4-c4cc3ccc4O)[C@H](O)c3ccc(c(Cl)c3)Oc3cc2cc(c3O[C@@H]2O[C@H](CO)[C@@H](O)[C@H](O)[C@H]2O[C@H]2C[C@](C)(N)[C@H](O)[C@H](C)O2)Oc2ccc(cc2Cl)[C@H]1O — MIC (Salmonella enterica serovar Typhimurium; 14028, Mueller-Hinton broth; 18 to 20 h, 37 °C): 64 µM
CC1(C)[C@H](NC(=O)/C(=N\OC2(C(=O)O)CCCCC2)c2csc(N)n2)C(=O)N1OS(=O)(=O)O — MIC (Citrobacter freundii; agar dilution; ATCC 43864, susceptible): 2 µg/mL
COC(=O)[C@]12CS[C@H](c3ccccc3)N1C(=O)/C(=C(\O)C1CCCCC1)C2=O — MIC (Streptomyces; bacterial growth, broth dilution; Mueller-Hinton broth; 24 h, 35 °C): 7.81 µg/mL

For quick reference, copied from above:
N=C(N)NCCC[C@@H]1NC(=O)[C@H](CCCNC(=N)N)NC(=O)[C@@H](C(c2ccccc2)c2ccccc2)NC(=O)[C@H](Cc2c[nH]c3ccccc23)NC(=O)[C@@H](C(c2ccccc2)c2ccccc2)NC(=O)[C@@H](CCCNC(=N)N)NC(=O)[C@@H](CCCNC(=N)N)NC1=O — MIC (Candida albicans; fungal growth): 8 µg/mL
O=C1C(=C(O)NC23CC4CC(CC(C4)C2)C3)C(=O)C2(C(=O)OC3CCCCC3)CSC(c3ccccc3)N12 (stereo not shown) — MIC (Streptomyces; bacterial growth, broth dilution; Mueller-Hinton broth; 24 h, 35 °C): 15.6 µg/mL
CCOc1c(NC(=O)c2ccc(NC(=O)c3ccc(NC(=O)[C@H](Cc4c[nH]nn4)NC(=O)c4ccc(NC(=O)/C(C)=C/c5ccc(O)cc5)cc4)cc3)c(OCC)c2O)ccc(C(=O)O)c1O — MIC (Mycolicibacterium phlei; DSM 750): 0.5 µg/mL
C=C(NC(=O)c1csc(-c2nc3c(cc2O)-c2nc(cs2)C(=O)NC(C(C)O)C(=O)NC(=C(C)OC)c2nc(cs2)C(=O)NC2c4nc(cs4)C(=O)NC(COC(=O)c4c5c6c(cccc6n4O)COC(=O)C(OC4CC(C)(O)C(N(C)C)C(C)O4)C2OC5)c2nc-3cs2)n1)C(N)=O (stereo not shown) — MIC (Staphylococcus aureus; MRSA-11): 0.0039 µg/mL
